Published values gathered from unrelated publications.
A part holds a random share of what one study measured. Substitutions count along the parent as printed.
Sequence of UniProt Q8RYC6 (whole entry, looked up): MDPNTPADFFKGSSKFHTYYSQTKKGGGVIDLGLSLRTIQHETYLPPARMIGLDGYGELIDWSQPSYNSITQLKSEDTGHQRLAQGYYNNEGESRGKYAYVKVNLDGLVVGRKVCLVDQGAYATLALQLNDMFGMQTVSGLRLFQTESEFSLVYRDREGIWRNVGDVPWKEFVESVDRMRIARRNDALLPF
Sequence of UniProt Q8L7G0 (whole entry, looked up): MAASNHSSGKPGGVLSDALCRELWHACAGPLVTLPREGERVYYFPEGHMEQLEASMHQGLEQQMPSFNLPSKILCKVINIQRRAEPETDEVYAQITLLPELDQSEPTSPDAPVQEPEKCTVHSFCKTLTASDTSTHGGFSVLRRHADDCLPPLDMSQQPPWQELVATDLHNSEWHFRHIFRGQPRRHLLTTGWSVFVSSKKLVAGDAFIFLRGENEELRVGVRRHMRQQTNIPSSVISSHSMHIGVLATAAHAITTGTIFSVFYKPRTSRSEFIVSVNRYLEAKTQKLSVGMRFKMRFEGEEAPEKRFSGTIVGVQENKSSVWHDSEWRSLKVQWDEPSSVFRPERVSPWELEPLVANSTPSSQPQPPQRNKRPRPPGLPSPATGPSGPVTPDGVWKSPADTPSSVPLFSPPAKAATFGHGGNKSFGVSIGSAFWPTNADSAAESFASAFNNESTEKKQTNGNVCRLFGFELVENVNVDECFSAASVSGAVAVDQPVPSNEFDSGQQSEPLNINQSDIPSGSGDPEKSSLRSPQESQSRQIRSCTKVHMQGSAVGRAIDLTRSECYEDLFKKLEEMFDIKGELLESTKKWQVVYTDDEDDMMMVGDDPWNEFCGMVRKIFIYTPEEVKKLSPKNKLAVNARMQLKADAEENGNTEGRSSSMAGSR
Sequence of UniProt Q9C966 (whole entry, looked up): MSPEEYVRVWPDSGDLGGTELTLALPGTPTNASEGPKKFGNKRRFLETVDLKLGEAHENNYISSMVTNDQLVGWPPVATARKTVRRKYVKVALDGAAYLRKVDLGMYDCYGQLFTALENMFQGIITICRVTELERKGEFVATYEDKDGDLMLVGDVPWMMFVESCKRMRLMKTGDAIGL
Sequence of UniProt Q8LAL2 (whole entry, looked up): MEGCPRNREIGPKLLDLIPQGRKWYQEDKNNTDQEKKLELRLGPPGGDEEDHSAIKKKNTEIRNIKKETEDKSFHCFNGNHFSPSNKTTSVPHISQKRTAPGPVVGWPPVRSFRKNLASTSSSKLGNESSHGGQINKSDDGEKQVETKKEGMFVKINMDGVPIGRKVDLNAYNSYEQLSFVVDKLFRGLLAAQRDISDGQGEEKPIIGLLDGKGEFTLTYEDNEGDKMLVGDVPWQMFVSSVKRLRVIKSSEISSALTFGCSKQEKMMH
Sequence of UniProt Q9ZTX9 (whole entry, looked up): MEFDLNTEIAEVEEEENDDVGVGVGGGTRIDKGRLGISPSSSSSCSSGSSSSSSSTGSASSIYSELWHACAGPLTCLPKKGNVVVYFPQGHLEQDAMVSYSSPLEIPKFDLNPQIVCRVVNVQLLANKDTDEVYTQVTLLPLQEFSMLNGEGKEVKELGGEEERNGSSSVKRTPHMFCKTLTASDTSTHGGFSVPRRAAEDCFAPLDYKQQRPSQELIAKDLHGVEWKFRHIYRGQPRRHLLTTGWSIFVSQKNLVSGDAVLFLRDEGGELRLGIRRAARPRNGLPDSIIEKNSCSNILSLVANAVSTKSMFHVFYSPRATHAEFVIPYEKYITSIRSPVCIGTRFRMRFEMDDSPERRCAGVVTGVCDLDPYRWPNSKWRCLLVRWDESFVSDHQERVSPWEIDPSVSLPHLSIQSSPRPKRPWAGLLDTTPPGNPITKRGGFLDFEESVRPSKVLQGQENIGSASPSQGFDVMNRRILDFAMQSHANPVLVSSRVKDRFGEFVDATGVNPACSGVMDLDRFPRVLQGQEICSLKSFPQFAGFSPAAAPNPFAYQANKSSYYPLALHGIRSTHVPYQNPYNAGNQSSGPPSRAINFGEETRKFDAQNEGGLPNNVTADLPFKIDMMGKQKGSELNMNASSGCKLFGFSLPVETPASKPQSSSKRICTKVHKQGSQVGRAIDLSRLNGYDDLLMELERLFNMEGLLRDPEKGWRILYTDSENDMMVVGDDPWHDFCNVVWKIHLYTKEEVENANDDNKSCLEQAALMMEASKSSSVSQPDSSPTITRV
Sequence of UniProt Q8RYC8 (whole entry, looked up): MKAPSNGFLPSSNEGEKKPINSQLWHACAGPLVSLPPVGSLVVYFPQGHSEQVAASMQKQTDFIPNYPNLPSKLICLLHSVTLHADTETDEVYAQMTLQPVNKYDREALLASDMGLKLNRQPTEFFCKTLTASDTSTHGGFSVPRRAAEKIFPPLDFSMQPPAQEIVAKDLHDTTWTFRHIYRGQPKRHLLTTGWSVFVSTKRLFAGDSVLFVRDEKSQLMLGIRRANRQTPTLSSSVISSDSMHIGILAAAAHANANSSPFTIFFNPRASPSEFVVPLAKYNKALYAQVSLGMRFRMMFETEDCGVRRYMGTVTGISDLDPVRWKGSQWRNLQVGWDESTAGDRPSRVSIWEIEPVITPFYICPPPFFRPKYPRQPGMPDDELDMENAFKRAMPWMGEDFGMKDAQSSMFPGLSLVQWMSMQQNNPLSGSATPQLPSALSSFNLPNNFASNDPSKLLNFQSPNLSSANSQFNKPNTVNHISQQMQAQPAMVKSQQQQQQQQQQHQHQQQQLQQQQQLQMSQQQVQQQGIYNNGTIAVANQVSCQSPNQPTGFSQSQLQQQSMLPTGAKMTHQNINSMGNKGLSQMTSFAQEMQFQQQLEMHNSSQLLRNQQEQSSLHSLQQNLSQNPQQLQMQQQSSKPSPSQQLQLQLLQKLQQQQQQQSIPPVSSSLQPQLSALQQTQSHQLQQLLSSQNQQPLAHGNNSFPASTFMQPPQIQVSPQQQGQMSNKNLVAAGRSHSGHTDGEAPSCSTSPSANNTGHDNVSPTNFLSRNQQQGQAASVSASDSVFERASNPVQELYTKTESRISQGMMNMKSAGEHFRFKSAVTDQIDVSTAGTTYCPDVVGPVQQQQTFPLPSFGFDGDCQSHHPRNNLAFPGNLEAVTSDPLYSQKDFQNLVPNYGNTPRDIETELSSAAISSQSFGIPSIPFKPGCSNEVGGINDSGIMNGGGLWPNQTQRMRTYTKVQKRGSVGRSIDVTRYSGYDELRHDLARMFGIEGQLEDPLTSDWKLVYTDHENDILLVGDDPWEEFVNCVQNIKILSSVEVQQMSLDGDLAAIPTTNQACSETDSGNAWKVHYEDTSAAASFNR

Sample 1 — target: CCNE1, cyclin fold, Cln2 fusion (human); technique: yeast growth competition, sequencing; matrix: yeast; notes: strong parent motif; reference: not given; reading: higher = stronger binding; measurement: normalised enrichment score
Starting sequence: BRCA2 docking peptide (human); PSIKRNLLNEFDR; partner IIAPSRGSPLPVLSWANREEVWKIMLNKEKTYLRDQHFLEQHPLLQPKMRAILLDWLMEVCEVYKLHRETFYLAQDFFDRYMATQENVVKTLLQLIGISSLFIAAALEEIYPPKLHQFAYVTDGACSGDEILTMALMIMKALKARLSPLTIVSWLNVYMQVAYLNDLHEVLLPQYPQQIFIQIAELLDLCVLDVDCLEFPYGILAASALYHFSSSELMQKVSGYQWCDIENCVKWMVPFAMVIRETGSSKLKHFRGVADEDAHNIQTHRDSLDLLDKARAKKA
PSIKRNLLNEFDY [R13Y]: 2.35
PSILRNLLNEFDR [K4L]: 0.949
PSIKRNLLNKFDR [E10K]: 0.101
PSIIRNLLNEFDR [K4I]: 0.902
GSIKRNLLNEFDR [P1G]: 1.31
PSIKRKLLNEFDR [N6K]: 1.03
PSIKRNLFNEFDR [L8F]: 1.24
WSIKRNLLNEFDR [P1W]: 2.44
PSIKRNLENEFDR [L8E]: 0.164
PYIKRNLLNEFDR [S2Y]: 1.02
PSIKRNLLREFDR [N9R]: 1.9
PSIKRNLLNERDR [F11R]: 0.0115
PSIKPNLLNEFDR [R5P]: 0.211
PSIKRNLLNHFDR [E10H]: 1.18
PSIKRNLLNEFPR [D12P]: 0.582
PSIKRNLSNEFDR [L8S]: 1.12
PSIKRNLLNEFTR [D12T]: 0.783
PSIKRNLGNEFDR [L8G]: -0.335
PGIKRNLLNEFDR [S2G]: 1.4
PSIKRNQLNEFDR [L7Q]: 0.238
PSIKRNKLNEFDR [L7K]: 0.311
PSIKRNLLNFFDR [E10F]: 1.33
PSIKRNLLVEFDR [N9V]: 2.06
PSIKRNLWNEFDR [L8W]: -0.136
PSIKKNLLNEFDR [R5K]: 0.803

Sample 2 — technique: RNA Bind-n-Seq; molecule type: RNA; matrix: in vitro; concentration: 365 nM; reference: no-protein control; reading: higher = stronger binding; measurement: RBNS enrichment (R)
Target: RNA binding protein fox-1 homolog 2, RRM domain, GST-SBP tag (RBFOX2, Homo sapiens, UniProt O43251-10, residues 100-194)
Notes: natural RNA segment, single round, ends assumed
All sequences stand within: GGGAGUUCUACAGUCCGACGAUC … UGGAAUUCUCGGGUGCCAA
Residues (chain): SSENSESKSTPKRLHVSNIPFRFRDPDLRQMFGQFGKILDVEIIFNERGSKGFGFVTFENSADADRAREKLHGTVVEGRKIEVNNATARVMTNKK
UUGUUUAAACGCAAAGCUUUGUAAAAGCCACAAGGUCUGAGCUGAACCCCUCCUUUUUGAACUUACUGUGACAAGCACAGGAACGGUCAGAAACUGGGCUCAUCACACCA: 0.297
CCCUUAAAUACAGCAGAACCUGGAGAAGGUCAUACUUCAAAGGUCGAUUUUGAGUCCGAAUAAAGAAAGACCUAGUAACAGAUAGUUUUUUUUUGUUCAUUUUCUUCUAC: 0.345
UUCCACACCCUAGUGUGUGUAAGUUCCUCGCUCAUAGGAAAUGCAACAGUUUGAGGGAGCAUUGCCCCUUUGUUCCUGUGAGGACUGGCAGGCUUUGACUGACCUCUCAU: 0.329
UAUUGUAGUUGGCUGUGCAUGGUACAAAUUUAUUAAUAUGAAGAAAUGCAAAAUGUAUUGCUUUUGAUAUUUCUAUUCUGAGAUGAACCAGUAGCAUGUAAUGCAACUGU: 0.871
CAGAUUGCAUAGCCUGAAAGAGGCUUCUGUGGCCACCUGGGAGUCUCAGUGUUUUCUUCAAAACUUCUCCAAGAGAGUCCAGGCUCUCACAUCGUCUUCCUGUGCGACCU: 0.442
GAGGGUGCUCUGGGCUGGAGGGAGCAGGGACACUCUCAGCCAAAUGGAGCAGUGGGGAGACACCAGGGCUGCAUUAUUUGAAUUAUUUUGCAGCCACAUGGGACUUUUCU: 0.601
UUUGUACUCUUGUUUUUGCAUAACUGGUUUUGUUUUUUUGCAGAAUUAACUAUAACAAUCACUGGCUACCGAAGUAAACUGAUGUACUGAAUUCCAUAAUACAUAACAUU: 0.387
GCACAUGCUUCAGAAUCCUAUGGAAGAGAAUAUUCCUACUUGCAGUACAUCAAAGGAAUGGAUGGUGGACCCUACUAUUCAUGUUUUGAGACAUAAAUGUUCACUUUAAA: 0.647
UCUAGAACCGACGACCACACACCGCCCCCGUGUUCCACCCAGCAAGCUCCGCUGGGAGACCCAGCGCCGGCACCCACUCUGCCGCAGAGGGAGGAAGGGGACUGCAGUAA: 0.245
GAAAAAAGUGUUGGCCUUUUUGCGGGACCAGAUUUUUAAGAUAAAAUAAAUAUUUUUACUUCUGUCAUUGUAUGUGAAAGAUGAAUGUGUUUCUGGCCGCGUGGCUGUUA: 0.463
UUAAAAAGAAAUUAUUCUCAUUGCUGUAUUAUAUUGGAAAAGUUUUAAACAACCAAGCUAAAGCUAUGUGAAAGUUGAGCUCAAAGUAGAGGAAAAGUUACUGGUGGUAC: 0.439
AAGUGUGUCUUACGUGCCACCACGGCGUUGUACCUGUAGGACUCUCAUUCGGGAUGAUUGGAAUAGCUUCUGGAAUUUGUUCAAGUUUUGGGUAUGUUUAAUCUGUUAUG: 0.777

Sample 3 — technique: DHFR PCA, deep sequencing; matrix: yeast; added: (+)-ABA 0 µM; reference: wild-type fitted maximum; reading: higher = stronger binding; measurement: relative binding score
Target: ABI1, truncated, D143A, DHFR fusion (Arabidopsis thaliana)
Notes: methotrexate growth selection, single substitutions
Starting sequence: PYL1, truncated, DHFR fusion (Arabidopsis thaliana); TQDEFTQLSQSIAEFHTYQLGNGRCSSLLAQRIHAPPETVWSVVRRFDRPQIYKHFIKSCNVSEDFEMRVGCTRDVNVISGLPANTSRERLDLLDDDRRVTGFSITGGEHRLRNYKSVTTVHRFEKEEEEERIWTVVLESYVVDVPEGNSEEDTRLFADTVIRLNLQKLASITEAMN; partner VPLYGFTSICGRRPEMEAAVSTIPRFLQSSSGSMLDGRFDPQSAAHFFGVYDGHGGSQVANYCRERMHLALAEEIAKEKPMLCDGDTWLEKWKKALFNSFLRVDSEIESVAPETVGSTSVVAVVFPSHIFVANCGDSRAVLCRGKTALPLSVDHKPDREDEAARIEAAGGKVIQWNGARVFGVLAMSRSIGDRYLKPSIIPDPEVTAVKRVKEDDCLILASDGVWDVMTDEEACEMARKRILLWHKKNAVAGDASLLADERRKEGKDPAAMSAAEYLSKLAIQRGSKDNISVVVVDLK
S117W: 3.67%
I172A: -2.63%
L28M: 14.4%
V62F: -8.14%
L91G: -3.77%
G107K: -0.147%
R98A: 2.72%
L94G: -3.44%
G23M: 3.62%
V137S: 0.459%
P83C: 13.2%
R24M: 10.3%
H16Q: -1.75%
Q167R: 20.7%
V136W: -14.5%
S59C: 5.78%
T106K: -1.12%
D159I: -12.2%

Sample 4 — Molecule: B1 (IAA10); technique: two-hybrid; reading: higher = firmer interaction; measurement: positive tests
B1: IAA10 (Arabidopsis thaliana, UniProt Q38828); chain MNGLQEVCSSSGSVMIGLPAEEDENAAHSSEDSSCPDESVSETELDLALGLSIGRRKVRSSLSSSSSSLTRESGTKRSADSSPAAASNATRQVAVGWPPLRTYRINSLVNQAKSLATEGGLSSGIQKETTKSVVVAAKNDDACFIKSSRTSMLVKVTMDGVIIGRKVDLNALDSYAALEKTLDLMFFQIPSPVTRSNTQGYKTIKETCTSKLLDGSSEYIITYQDKDGDWMLVGDVPWQMFLGSVTRLRIMKTSIGAGVGK
IAA26 (Arabidopsis thaliana, UniProt Q8LAL2); reference: out of 2 tests: 0
IAA15 (Arabidopsis thaliana, UniProt Q9C966); reference: out of 2 tests: 2
ARF19 948-1086 (Arabidopsis thaliana, UniProt Q8RYC8); reference: out of 4 tests: 3
ARF4 660-788 (Arabidopsis thaliana, UniProt Q9ZTX9); reference: out of 4 tests: 1
IAA32 (Arabidopsis thaliana, UniProt Q8RYC6); reference: out of 4 tests: 1
ARF1 538-665 (Arabidopsis thaliana, UniProt Q8L7G0); reference: out of 4 tests: 0

Excerpt of the above (sample 2):
CAGAUUGCAUAGCCUGAAAGAGGCUUCUGUGGCCACCUGGGAGUCUCAGUGUUUUCUUCAAAACUUCUCCAAGAGAGUCCAGGCUCUCACAUCGUCUUCCUGUGCGACCU: 0.442
GAGGGUGCUCUGGGCUGGAGGGAGCAGGGACACUCUCAGCCAAAUGGAGCAGUGGGGAGACACCAGGGCUGCAUUAUUUGAAUUAUUUUGCAGCCACAUGGGACUUUUCU: 0.601
UUUGUACUCUUGUUUUUGCAUAACUGGUUUUGUUUUUUUGCAGAAUUAACUAUAACAAUCACUGGCUACCGAAGUAAACUGAUGUACUGAAUUCCAUAAUACAUAACAUU: 0.387
